Assay results pooled from the literature.
“And” joins repeats or separate records; there may be more than shown. ± gives the spread as reported.

COc1ccc2c(=O)n(C)c(-c3ccccc3)nc2c1 — tissue concentration (male Sprague-Dawley rat, small intestine; oral, 30 mg/kg, 0.25 h): 215000 ng/g
Cc1ccc(OC2CCN(c3ncnc4ccc(F)cc34)CC2)cn1 — intrinsic clearance (scaled) (human liver microsomes): 290 mL/min/kg
CCn1ncc2c1-c1cnc(N)c(c1)O[C@H](C)c1cc(F)ccc1-c1nn(C)nc1C2 — unbound plasma trough concentration (female athymic nude mice, sample B PDX; oral, 15 mg/kg twice daily for 21 days, 12 h): 264 ± 37 nM
COc1cc(Nc2ncc3c(n2)-c2ccc(Cl)cc2C(c2c(F)cccc2OC)=NC3)ccc1C(=O)O — patients with adverse event (item: weight loss, grade 2; cancer patients, phase 1/2; oral, dose not given, together with: pembrolizumab): 13%
CC(C)C[C@@H]1NC(=O)[C@H](C)N(C)C(=O)[C@H](Cc2ccccc2)NCc2ccc([nH]2)CNC1=O — -log Pe (PAMPA; 2% lecithin in dodecane; 100 µM, 17 h, pH 6.4, 37 °C): 5.01
O=C(Nc1nc2cccc(-c3ccc(CN4CCS(=O)(=O)CC4)cc3)n2n1)C1CC1 — treatment-emergent adverse events (item: asthenia; human rheumatoid arthritis patients; oral, 150 mg once daily, 4 weeks, regardless of relatedness): 0%
CSCC[C@H](NC(=O)[C@@H](N)CCSC)C(=O)N[C@@H](CCCNC(=N)N)C(=O)N[C@@H](Cc1c[nH]c2ccccc12)C(=O)N[C@@H](CO)C(=O)N[C@@H](CCCNC(=N)N)C(=O)N[C@@H](CCCCN)C(=O)N[C@@H](CCSC)C(=O)N1CCC[C@H]1C(=O)N[C@@H](CS)C(=O)N[C@H](C(=O)N[C@@H](CO)C(N)=O)C(C)C — remaining activity (12G5 competition, SUP-T1 cells; human plasma; 20 µM, 2 h, 37 °C): 3 ± 1%
O=c1ccc2ccc(O)cc2o1 — intrinsic clearance (dog liver microsomes): 691 µL/min/mg protein
CN1C(=O)[C@@H](NC(=O)c2nnc(Cc3ccccc3)[nH]2)COc2cccnc21 — TEAE leading to permanent discontinuation (phase I multiple ascending dose; human, male and female; oral, 50 mg, 14 days): 12.5%
COc1ccc2[nH]c([S+]([O-])Cc3ncc(C)c(OC)c3C)nc2c1 (stereo not drawn) — t1/2 (healthy Chinese volunteers, CYP2C19 rapid metabolizers; oral, 20 mg, enteric-coated tablets): 0.85 ± 0.5 h
CNC(=O)c1ccc(-c2cnc3ncc(Cc4ccc5ncccc5c4)n3n2)cc1F — patients with adverse event (item: Constipation; cancer patients; oral, dose not given, dose escalation, grade 3-4): 0%
O=C(Nc1ccc(Cl)cc1)Nc1ccc(Cl)c(Cl)c1 — milk fat partition ratio (cow whole milk; 20 nM; reference: milk fat over skim milk): 166
C=C(CS(=O)(=O)c1cc(C(F)(F)F)cc(C(F)(F)F)c1)C(=O)OCC — degradation rate constant (chemical stability, HPLC-MS; borate buffered saline; pH 10.2, no N-acetyl-lysine): 0.5 h⁻¹
O=C(COc1ccc(Cl)cc1)NC12CC(c3nnc([C@H]4C[C@@H](OC(F)(F)F)C4)o3)(C1)C2 — adverse event incidence (item: muscle spasms; human; oral, 200 mg once daily, 14 days): 14.3%
CN1CCC(c2ccc(-c3ccc(C4CCCCC4)cc3)cn2)CC1 — hepatic clearance (liver microsome stability; human liver microsomes; 1 µM, without NADPH): 12 mL/min/kg
Cc1ccc2cncc(N3CCc4c(cc(Cn5ccnc5)cc4-c4cn(C)nc4C(F)(F)F)C3=O)c2c1 — AUC extrapolated (CD-1 mouse, male, plasma; oral, 50 mg/kg): 0%
O=C(OC(C(F)(F)F)C(F)(F)F)N1CCN(Cc2cccc(Oc3ccccc3)c2)CC1 — Ktrans (PET blocking study; rhesus monkey, brain HIP; 0.03 mg/kg, compound pretreatment, together with: [18F]T-401 tracer): 0.004 min⁻¹
CCN1/C(=C/C(C)=O)Sc2ccc(F)cc21 — PR interval (cynomolgus monkey; oral, 10 mg/kg, 4 h post-dose): 95 ± 2 ms
[18F]c1ccc(-c2ccc3c(c2)[nH]c2ccncc23)cn1 — SUV (ex vivo biodistribution; B6SJL mouse, normal, heart; intravenous, 30 min): 0.625 ± 0.181
Cl.[2H]C([2H])([2H])CC(=O)c1cnc(NC(=O)C2CC2)cc1Nc1cccc(-c2ncn(C([2H])([2H])[2H])n2)c1OC — AUC(0-tau) (geometric mean; human; oral, 40 mg twice daily, day 1, fasted, tablet, multiple dose): 1570 ng·h/mL
Cc1cc(NC2CCN(C(=O)OC3CCN(C(=O)/C=C/CN(C)C)C3)CC2)n2ncc(C(C)C)c2n1 (stereo not drawn) — patients with Flatulence (patients with advanced solid tumours; dose not given, QD arm, any grade): 9%
NC1(C(=O)N[C@@H](CCO)c2ccc(Cl)cc2)CCN(c2nc[nH]c3nccc2-3)CC1 — incidence of blood creatinine increased (metastatic CRPC patients; 320 mg b.i.d., grade 3 to 4, treatment-related, together with: enzalutamide 160 mg daily): 0%
CN(C)CCC(=O)Nc1ccc([C@H]2[C@@H](F)[C@@H](F)C[C@@H](F)[C@H]2F)cc1 — hepatic clearance (liver microsome stability; rat liver microsomes; 1 µM): 40 mL/min/kg
CCO[C@H]1CCN(Cc2c(OC)cc(C)c3[nH]ccc23)[C@H](c2ccc(C(=O)O)cc2)C1 — unbound AUC0–12 (human healthy controls, plasma; oral, 200 mg single dose, mean): 3230 ng·h/mL
C=CC(=O)NC1CCN(c2ncc3ncnc(Nc4ccc(Oc5ccc6c(c5)ncn6C)c(C)c4)c3n2)CC1 — blood-to-plasma ratio (item: total radioactivity; healthy male human, whole blood and plasma; oral, 60 mg, 24 h, geometric mean): 1.03
CCN1CCN(Cc2ccc(NC(=O)c3ccc(C)c(NC(=O)c4cncc(-c5cccs5)c4)c3)cc2C(F)(F)F)CC1 — mean plasma concentration (LC-MS/MS; C57BL/6 mouse, plasma; intraperitoneal, 20 mg/kg single dose, 1 h): 482 ng/mL
O=C1NCCc2nc(OCc3cccc(F)c3)ccc21 — Irwin test score (item: Writhing; Sprague-Dawley rat male; oral, 100 mg/kg, 4 h; direction not given): 0
O=C(Nc1ccc([C@H]2[C@@H](F)[C@@H](F)C[C@@H](F)[C@H]2F)cc1)c1cn[nH]c1 — hepatic clearance (cryopreserved human hepatocytes; 1 µM): 6.2 mL/min/kg
N[C@@H](Cc1ccc(O)c(O)c1)C(=O)O — serum protein binding (ultrafiltration; normal rat serum; 37 °C): 43 ± 22%
CN(C)C(=O)c1cc2cnc(Nc3ccc(N4CCNCC4)cn3)nc2n1C1CCCC1 — Vz/F (human, mild renal impairment, plasma; oral, 400 mg, geometric mean): 3550 L
CC[C@H](C)CCCCC(=O)N[C@@H](CCN)C(=O)N[C@H](C(=O)N[C@@H](CCN)C(=O)N[C@H]1CCNC(=O)[C@H]([C@@H](C)O)NC(=O)[C@H](CCN)NC(=O)[C@H](CCN)NC(=O)[C@H](CC(C)C)NC(=O)[C@@H](Cc2ccccc2)NC(=O)[C@H](CCN)NC1=O)[C@@H](C)O — half-life prolongation (long-term haemodialysis patients, plasma; IV, 0.75 mg/kg; reference: healthy subjects): 10 h
CNCc1ccc(-c2[nH]c3cc(F)cc4c3c2CCNC4=O)cc1 — patients with adverse event (item: Diarrhea; human patients; oral, dose not given, all grades, all doses): 23.2%
O=C(c1ccc([C@H]2[C@@H](F)[C@@H](F)C[C@@H](F)[C@H]2F)cc1)N1CC(O)C1 — hepatic clearance (hepatocyte stability; cryopreserved human hepatocytes; 1 µM): 6.2 mL/min/kg
C=CC[C@@H]1/C=C(\C)C[C@H](C)C[C@H](OC)[C@H]2O[C@@](O)(C(=O)C(=O)N3CCCC[C@H]3C(=O)O[C@H](/C(C)=C/[C@@H]3CC[C@@H](O)[C@H](OC)C3)[C@H](C)[C@@H](O)CC1=O)[C@H](C)C[C@@H]2OC — trough blood level (LC-MS/MS; rat, whole blood; intraperitoneal, 0.5 mg/kg/day, 28 days): 3 ± 0.7 µg/L
Cn1ncnc1[C@H]1c2n[nH]c(=O)c3cc(F)cc(c23)N[C@@H]1c1ccc(F)cc1 — AUC(0-8h) (human patients, plasma; oral, 600 µg/m2 twice daily, day 1, monotherapy, dose level DL6, median): 27.8 ng·h/mL
Fc1ccc(CCCCN2CCN(c3ccccn3)CC2)cc1 — time on bar (catalepsy, bar test; Sprague-Dawley rat; intraperitoneal, dose not given, 60 min): < 20 s
COc1cccc(OC)c1-c1cc(C(=O)NC2(C(=O)O)C3CC4CC(C3)CC2C4)nn1-c1ccc(C(=O)N(C)CCCN(C)CCCN(C)C(=O)CN2CCN(CC(=O)[O-])CCN(CC(=O)[O-])CCN(CC(=O)[O-])CC2)cc1C(C)C.[177Lu+3] (stereo not drawn) — tissue uptake (mouse, HT-29 xenograft, liver; 168 h post injection): 0.244 %ID/g
Cn1cc([C@H]2C[C@H]3CSC(N)=N[C@@]3(c3ccc(F)cc3F)CO2)cn1 — brain concentration (male 129/SVE mouse, brain; subcutaneous, 3 mg/kg, 1 h): 159 nM
c1ncc(-c2ccc(C3CCCCC3)cc2)cn1 — hepatic clearance (liver microsome stability; dog liver microsomes; 1 µM): 29 mL/min/kg
C=CC(=O)Nc1cc(Nc2nccc(-c3cn(C4CC4)c4ccccc34)n2)c(OC)cc1N(C)CCN(C)C — relative error (autosampler stability; rat plasma; 160 ng/mL, 4 h, 10 °C; reference: nominal concentration): 0.4%
O=C(O)CCC(=O)O.[2H]C([2H])([2H])Oc1cc(C)c2[nH]ccc2c1CN1CC[C@@H](C2CC2)C[C@H]1c1ccc(C(=O)O)cc1 — TEAE elevated blood triglycerides (healthy Chinese subjects; 200 mg, single ascending dose): 16.7%
C[C@@H]1OC(=O)[C@H](Cc2ccccc2)[C@H]1O — KFoc (soil adsorption; tested soils; geometric mean): 86 mL/g
O=C(CC1CCOCC1)Nc1ccc(C2CCCCC2)cc1 — hepatic clearance (human liver microsomes; 1 µM, without NADPH): 3.9 mL/min/kg
Cc1nc(-c2ccc(OCC(C)C)c(C#N)c2)sc1C(=O)O — body weight (KM mouse, chronic hyperuricaemia model; dose not given, day 24): 32.9 g and 39.1 g and 43.7 g and 41.2 g and 37.1 g and 34.5 g
N#C[C@@]1(c2ccc3c(N)ncnn23)O[C@H](CO)[C@@H](O)[C@H]1O — recovery (plasma protein binding; dog plasma; 10 µM, time not given): 102%
Cc1ccc([C@@H]2O[C@H](CO)[C@@H](O)[C@H](O)[C@H]2O)cc1Cc1ccc(-c2ccc(F)cc2)s1 — volume of distribution (human, maintenance hemodialysis patients; oral, 300 mg once daily, steady state, mean): 206 L
CN[C@@H](C)C(=O)N[C@H]1CN(S(=O)(=O)c2cccc(S(=O)(=O)N3CC[C@H]4CC[C@@H](C(=O)NC(c5ccccc5)c5ccccc5)N4C(=O)[C@@H](NC(=O)[C@H](C)NC)C3)c2)CC[C@H]2CC[C@@H](C(=O)NC(c3ccccc3)c3ccccc3)N2C1=O — AUC(0-t) (LC-MS/MS; human, advanced solid tumours, plasma; intravenous, 0.3 mg weekly, day 1): 7.49 ± 2.39 ng·h/mL
CCCCCCOC(=O)NC(=N)c1ccc(NCc2nc3cc(C(=O)N(CCC(=O)OCC)c4ccccn4)ccc3n2C)cc1 — participants with adverse event (item: Myalgia; human; oral, 75 mg, alone): 4.2%
Cc1cc(C)c(CNC(=O)c2cc(Cl)c3c(c2C)O[C@@](C)([C@H]2CC[C@H](N(C)C)CC2)O3)c(=O)[nH]1 — patients with grade ≥3 TEAE (item: Neutropenia; human patients; oral, 200 mg once daily, 1 day onset day 14): 4.2%
CC(=O)N1CC(C(=O)Nc2ccc([C@H]3[C@@H](F)[C@@H](F)C[C@@H](F)[C@H]3F)cc2)C1 — hepatic clearance (liver microsome stability; cynomolgus liver microsomes; 1 µM): 4.9 mL/min/kg
N#Cc1ccc2c(c1)[C@H]1CCCN(C(=O)c3ccc4[nH]cnc4c3)[C@H]1C2 — maximum ACTH level (human; 20 mg, day 7): 17.1 pmol/L
COc1cccc(-c2n[nH]c(SCc3ccccn3)n2)c1OC — Cmax ratio (Sprague-Dawley rat, plasma; oral, 30 mg/kg; reference: female over male): 0.89
Cc1ccc([C@@H]2O[C@H](CO)[C@@H](O)[C@H](O)[C@H]2O)cc1Cc1ccc(-c2ccc(F)cc2)s1 — urinary sodium excretion change (Japanese type 2 diabetes patients; 25 mg, day 3, 24 h urine collection; reference: baseline): -4.79 mEq
C#C[C@]1(CO)O[C@@H](n2cnc3c(N)nc(F)nc32)C[C@@H]1O — AUC(0-168 h) (human, plasma; oral, 400 mg single dose, extrapolated beyond 96 h): 47.5 µM·h
O=C(NCc1cc[nH]n1)c1ccc(C2CCCCC2)cc1 — hepatic clearance (hepatocyte stability; cryopreserved mouse hepatocytes; 1 µM): 81 mL/min/kg
CCOc1c([C@H](C)n2nc(C)c3c(N)ncnc32)cc(Cl)c(F)c1[C@@H]1CNC(=O)C1 — AUC(0-last) geometric mean (patients, monotherapy; oral, 15 mg once daily, cycle 1 day 1): 3.69 µM·h
CC(C)(C(=O)N1CCOc2c(C#N)cncc2C1)C(F)F — share of subjects with TEAE (item: skin disorders; healthy humans, both sexes; oral, 30 mg single dose): 16.7%

Some of these lines once more:
C=CC[C@@H]1/C=C(\C)C[C@H](C)C[C@H](OC)[C@H]2O[C@@](O)(C(=O)C(=O)N3CCCC[C@H]3C(=O)O[C@H](/C(C)=C/[C@@H]3CC[C@@H](O)[C@H](OC)C3)[C@H](C)[C@@H](O)CC1=O)[C@H](C)C[C@@H]2OC — trough blood level (LC-MS/MS; rat, whole blood; intraperitoneal, 0.5 mg/kg/day, 28 days): 3 ± 0.7 µg/L
CCCCCCOC(=O)NC(=N)c1ccc(NCc2nc3cc(C(=O)N(CCC(=O)OCC)c4ccccn4)ccc3n2C)cc1 — participants with adverse event (item: Myalgia; human; oral, 75 mg, alone): 4.2%
Cc1cc(C)c(CNC(=O)c2cc(Cl)c3c(c2C)O[C@@](C)([C@H]2CC[C@H](N(C)C)CC2)O3)c(=O)[nH]1 — patients with grade ≥3 TEAE (item: Neutropenia; human patients; oral, 200 mg once daily, 1 day onset day 14): 4.2%
CN(C)CCC(=O)Nc1ccc([C@H]2[C@@H](F)[C@@H](F)C[C@@H](F)[C@H]2F)cc1 — hepatic clearance (liver microsome stability; rat liver microsomes; 1 µM): 40 mL/min/kg
